Measurements of several laboratories.
Lines come from different studies, so protocols differ. ± marks the error that the study gave.
U2AF2: U2AF2 148-342 (Homo sapiens, UniProt P26368)
Sequence of UniProt P26368 (whole entry, looked up): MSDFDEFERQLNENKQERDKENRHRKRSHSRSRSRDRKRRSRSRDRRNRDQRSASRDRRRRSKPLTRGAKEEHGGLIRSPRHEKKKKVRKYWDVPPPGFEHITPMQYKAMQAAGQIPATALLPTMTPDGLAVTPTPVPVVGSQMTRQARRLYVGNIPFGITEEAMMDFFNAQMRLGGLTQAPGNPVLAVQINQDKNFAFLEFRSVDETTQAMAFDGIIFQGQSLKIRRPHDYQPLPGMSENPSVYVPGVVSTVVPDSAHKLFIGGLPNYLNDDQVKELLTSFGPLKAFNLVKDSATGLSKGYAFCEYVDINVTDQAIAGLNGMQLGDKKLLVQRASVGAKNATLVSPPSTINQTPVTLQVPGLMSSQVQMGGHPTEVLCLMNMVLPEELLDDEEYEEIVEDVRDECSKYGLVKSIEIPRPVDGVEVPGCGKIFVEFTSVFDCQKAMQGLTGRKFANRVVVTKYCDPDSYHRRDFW
B1: enzyme S252E/S281E/S285E/S287E (Schizosaccharomyces pombe, UniProt P78804); chain MSTPYEPEFQQAYKEIVGSIESSKLFEVHPELKRVLPIISIPERVLEFRVTWEDDKGNCRVNTGYRVQFNSALGPYKGGLRFHPSVNLSILKFLGFEQIFKNALTGLPMGGGKGGSDFDPKGKSDNEIRRFSQAFMRQLFRYIGPQTDVPAGDIGVTGFVVMHMFGEYKRLRNEYSGVVTGKHMLTGGSNIRPEATGYGVVYYVKHMIEHRTKGAETLKGKRVAISGSGNVAQYAALKCIQEGAIVKSISDEKGVLIAKTAEGLVPEEIHEIMALKEKRAEIADEAELCKKHHYIAGARPWTNVGEIDIALPCATQNEVSGEEAAALIKQGCRYVAEGSNMGSSAEAVEVFEKSRASGEGCWLAPGKAANAGGVAVSGLEMAQNAQFSTWTHAEVDAKLAGIMQNIFEQSTDVASKYCDSGSNNIPSLVDGANIAGFLKVATAMQAVGDWW
B2: enzyme (Kluyveromyces lactis, UniProt Q6CSZ6); chain MSSLDINEQRALIKSAHRYISEKLEDHFSSEFLPKALVICGSGLSGISTKIADEPKPLILSYSTIPGFKVSTVPGHSGELIFGYMNGAPVVLMNGRLHSYEGHSLAETVHPIRALHLLGSINVLIVTNAAGGINASFKAGDLMCVYDHINFPGLCGFHPLRGANFDEFGPRFLATSDAYDLELRKLLFSKKKELNIERKIHEGTYSYVHGPTFESRAESRFLRLAGTDAVGMSTVPEVVTARHCGWRVLALSLITNECVVDPPASAHDENPVPIQEGKATHEEVLENSAKASKDVQELIFSVVAEI
B3: enzyme (Plasmodium falciparum, UniProt C0H484); chain MVREAHELLDGSRPIPIDKITYELSQNIILAFDNHENINNKDIQIEIEGRVGLVIDKNKNRIKLPINTDAIIENNYSDFQAGIDRESFEYLLDYFHNMTLKKRLSIRNNDNNNNNMDNNNNNMDNNNNIHIHNSGNNTNQTHSYDKNADDNKPTCNYSYDKKNACIYDFLELKTTKSIDKYYVIKNNNSRIRTTTYLNDDNKQETESMMIQSLQKDNLNIWNVYTGNNYDYFDDDEEDDDDDYNNNNNNNNGDTGTKTNIATNNTHGLTTSKSQHIYNNLVDKNDSIDYRISINIEYTKPISKLYLSKNTPVHERLKERTTFINTYLGLQVDMTKIKTKNNELYEVEIEIPSKTIFKAMSNLRNKKDSNYLHFICSNLVNNIRGICSQLNVFKKSKHMLKNTMITKLNNNSNNQNNLSLLPNHPNDDTISSKEKEKFKKYIHSVLPIVGDY
B4: enzyme (Chlamydomonas reinhardtii, UniProt A0A2K3D977); chain ASDSVLAVWRKADAVCFDVDCTITVNDSLDLLAEFMGVKEQVEILTNKAMDGSLSLEQALEERLNIINCSPDDIKRFIKAHPPASRMAPGIKELINSLQARGKAIYLISGGFRELTLPIAAYLGIPKENVFANRMNWQWDDETGMPTKLVGFDMSEPTAHNQGKPQAIARIRQRNPYNTVVMIGDGITDLEAVQTTGGADLFIGSGVVVERPAVAREADWYVYDYTDLLRTMARYSVAMVGSGAWACAAVRMIAQNTQVDDAADEFVDEVRMWVYEEDFEGKKLTEVINQTHTNPKYFPGFDLGPNVVAVPNIVDAVADADLIVFCAPHQFLHHICKQLVGKIKPGAAAISLTKGMRVRPEGPQLISQMVRRLLGIDCCVLMGANIATDIGREQLSEAVIGYDNLDAATLFQKIFQRPYFRVNLLPDPVGAEMCGTLKNIVALGAGMVDGLGLGPNSKAAIIRQGLVEMRAFSKALYPSVRDDTFMESCGVGDLVATCYGGRNRLVACEWTKAQMEGKPRTFEDLETDLLKGQKLQGVLTSNEVQEILKVRGWESQYPLFTTVNRIINGYLPPKYVVEFVAGAKYHIRRPGTDDEEIVPVRPKRPAAAGGVATAPILAA
B5: enzyme (Lacticaseibacillus rhamnosus, UniProt A0A7S7JIA0); chain MSEPLPRIKRYEDLGLGLFIHWGLYSQLAVGEWTEFIHHRSRSEYEKLIATFTANQFDAEAIAHAAKMMGAKYIVLTTKHHEGFFLYDTKGLSSFDVMHSPANRDLIAEFVAACRKEGLLPFFYVATYDWHSPLYEENFPAYLDYLKASVEVLCRHYGPVGGFWFDGNWNKKEADWQLPALYGMIRKYQPDAIIVNNTGLKNRGKVSDPEIDVVTYERRTPDEIYHGAPNAKYVAGEISMTLNQHWGIATNDLNYKSPAEVIETVAHARHIGANILVNIGLTGQGAIPASAKTYMALLGRWTTMAAPALYRGRPTAIVSGQGARDFVLHADAHDYLCVFDLKVVGNDNVVLGGEGVNPRSFVGIDRPIESVYWLDNEEYLSFTQDLHKRVLTVDATGYPYGSDWVVRIAQIDYKSENRTVKSD
B6: enzyme (Azotobacter vinelandii, UniProt C1DN94); chain MSESPLRLDRLRDFVSALGELLDRHPDEESVLREGRSLLGELVRHDDWLPEEFAQPDPERYQQYLLHADSRQRFSVVSFVWGPGQTTPVHDHRVWGLIGMLRGAEDAQSFELGAEGLRPIGDPVRLSPGQVEAVSPRIGDIHRVFNASPDQPSISIHVYGANIGAVRRAVYLPDGSEKPFISGYSNQFLPNIWDQSKESARP
B7: enzyme C74S (UniProt A0A0P0CH59); chain MRIALFSDIHANLPALEAVLANMETQQLDAIYCLGDLVGYAPWPNEVVAEIRKRRIPTIAGNYDEGVGLWSPNSGCAYKTDTEKDLGQQSIDFTNNVVTEETRKYLRMLPRQLRLTFMDGSKEENKIELLLVHGSPRKINEYLFEDRPEKSFLKMMEEANADLLFFGHTHKPYHRAMPYEHEGQTRYRHAINIGSVGKPKDGDPRTGYVVVELTPESSLTQKDSIKVEFIRVPYDVETAAQAVEASPLPNEFAQMLRTA
B8: acsA (Pseudomonas chlororaphis, UniProt Q5CD72); chain MRDYEHVVESFDYLQSATQDLHGELTALNACVECCDRHAHGEAVALYCEAQDGHAERYRFRDLQRQAARFGNFLREQGVKPGDRVAGLMPRTVELLIAILGTWRIGAVYQPLFTAFGPKAIEQRLNCSNARWIVTDPHNRPKLDDVTDCPSIVVTGGAPQNPADHHFWSALNRQADDCAPVLLDASAPFLLMCTSGTTGPAKPLEVPLSAILAFKGYMRDAIDLRADDRFWNLADPGWAYGLYYAVTGPLACGYATLFYDGPFTVESTRHIIAKYAINNLAGSPTAYRFLIAAGAEFADAVRGRLRAVSSAGEPLNPQVVRWFAEQLGVVIHDHYGQTEIGMVLCNHHGLRHPVREGSAGYAVPGYRIVVLDKAHRELPAGQPGVLAVDRERSPLCWFDGYLGMPTQAFAGRYYLSGDIVELNDDGSISFVGRNDDLITTSGYRVGPFDVESALIEHPAVVEAAVIGKPDPQRTELIKAFVVLNTPYLPSPELAEELRLHVRQRLAAHAYPREMEFVDHLPKTPSGKLQRFILRNQEIAKQQALG
B9: enzyme (Drosophila melanogaster, UniProt P18105); chain MEGAKLSAVRIAVREAPYRQFLGRREPSVVQFPPWSDGKSLIVDQNEFHFDHAFPATISQDEMYQALILPLVDKLLEGFQCTALAYGQTGTGKSYSMGMTPPGEILPEHLGILPRALGDIFERVTARQENNKDAIQVYASFIEIYNEKPFDLLGSTPHMPMVAARCQRCTCLPLHSQADLHHILELGTRNRRVRPTNMNSNSSRSHAIVTIHVKSKTHHSRMNIVDLAGSEGVRRTGHEGVARQEGVNINLGLLSINKVVMSMAAGHTVIPYRDSVLTTVLQASLTAQSYLTFLACISPHQCDLSETLSTLRFGTSAK
Sequence of UniProt P52961 (whole entry, looked up): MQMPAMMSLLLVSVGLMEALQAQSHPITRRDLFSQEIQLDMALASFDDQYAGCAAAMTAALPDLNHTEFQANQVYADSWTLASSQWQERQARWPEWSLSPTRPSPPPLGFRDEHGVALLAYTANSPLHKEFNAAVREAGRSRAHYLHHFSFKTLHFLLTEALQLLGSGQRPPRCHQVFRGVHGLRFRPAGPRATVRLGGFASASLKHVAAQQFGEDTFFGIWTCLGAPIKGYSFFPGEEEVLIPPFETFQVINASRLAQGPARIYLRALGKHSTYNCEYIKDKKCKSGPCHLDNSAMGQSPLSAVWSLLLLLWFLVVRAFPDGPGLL
Sequence of UniProt Q6UX07 (whole entry, looked up): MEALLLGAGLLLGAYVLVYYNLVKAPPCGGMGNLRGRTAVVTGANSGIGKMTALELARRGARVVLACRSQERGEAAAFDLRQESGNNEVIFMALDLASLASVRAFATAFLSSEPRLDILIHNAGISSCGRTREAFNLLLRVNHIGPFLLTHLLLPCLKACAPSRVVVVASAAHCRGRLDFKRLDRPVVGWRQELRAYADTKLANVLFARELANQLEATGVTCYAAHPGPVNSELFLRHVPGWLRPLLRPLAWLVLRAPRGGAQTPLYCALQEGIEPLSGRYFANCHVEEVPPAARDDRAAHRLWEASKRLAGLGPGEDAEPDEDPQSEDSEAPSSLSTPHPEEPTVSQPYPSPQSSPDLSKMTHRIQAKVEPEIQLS

| Molecule | tested on | test | test system | setting | scale | measurement | value |
| --- | --- | --- | --- | --- | --- | --- | --- |
| GGUCUUAAC (ssRNA) | U2AF2 | sequencing of bound RNA | RNA | motif only |  | Kd | 1.4 µM |
| enzyme (UniProt A0A097IUE6) | O=C(O)O | steady-state kinetics |  | pH 6.5, 25 °C |  | kcat | 61.3 ± 1.4 s⁻¹ |
| B1 (enzyme S252E/S281E/S285E/S287E) | NC(=O)c1ccc[n+]([C@@H]2O[C@H](COP(=O)(O)OP(=O)(O)OC[C@H]3O[C@@H](n4cnc5c(N)ncnc54)[C@H](OP(=O)(O)O)[C@@H]3O)[C@@H](O)[C@H]2O)c1 | steady-state kinetics |  | pH 7, 30 °C, apparent |  | kcat | 1.8 s⁻¹ |
| B2 (enzyme) | OC[C@H]1O[C@@H](n2cnc3c(O)ncnc32)[C@H](O)[C@@H]1O | steady-state kinetics |  |  |  | kcat | 31 ± 0.1 s⁻¹ |
| B3 (enzyme) | Nc1ncnc2c1ncn2[C@@H]1O[C@H](COP(=O)(O)OP(=O)(O)OP(=O)(O)O)[C@@H](O)[C@H]1O | steady-state kinetics |  | together with: Mn2+ |  | kcat | 0.43 ± 0.01 s⁻¹ |
| CAGGUUUCC (ssRNA) | U2AF2 | sequencing of bound RNA | RNA | motif only |  | Kd | 5.5 µM |
| DHRS13 (Homo sapiens, UniProt Q6UX07) | CC1=C(/C=C/C(C)=C/C=C/C(C)=C/C=O)C(C)(C)CCC1 | steady-state kinetics |  | pH 7.4, 37 °C |  | kcat | 0.097 ± 0.0217 s⁻¹ |
| B4 (enzyme) | NC(=O)C1=CN([C@@H]2O[C@H](COP(=O)(O)OP(=O)(O)OC[C@H]3O[C@@H](n4cnc5c(N)ncnc54)[C@H](O)[C@@H]3O)[C@@H](O)[C@H]2O)C=CC1 | steady-state kinetics |  | pH 7.5, together with: DHAP 5 mM |  | kcat | 147 ± 10 s⁻¹ |
| B5 (enzyme) | C[C@@H]1O[C@@H](Oc2ccc([N+](=O)[O-])cc2)[C@@H](O)[C@H](O)[C@@H]1O | steady-state kinetics |  | pH 5, 40 °C |  | kcat | 19.4 s⁻¹ |
| B6 (enzyme) | N[C@@H](CS)C(=O)O | steady-state kinetics |  | pH 8, 25 °C, together with: O2 |  | kcat | 1.2 ± 0.1 s⁻¹ |
| B7 (enzyme C74S) | O=[N+]([O-])c1ccc(OP(=O)(O)O)cc1 | steady-state kinetics |  | pH 7, 37 °C, together with: Ni2+ 0.25 mM |  | kcat | 0.0683 ± 0.005 s⁻¹ |
| ART1 (Homo sapiens, UniProt P52961) | N=C(N)NCCC[C@H](N)C(=O)O | steady-state kinetics |  | pH 7.5, 25 °C, HEPES 50 mM, together with: saturating NAD+ |  | kcat | 10 ± 1 s⁻¹ |
| B8 (acsA) | C#CCCC(=O)O | steady-state kinetics |  | pH 7 |  | kcat | 0.0667 ± 0.0167 s⁻¹ |
| B9 (enzyme) | Nc1ncnc2c1ncn2[C@@H]1O[C@H](COP(=O)(O)OP(=O)(O)OP(=O)(O)O)[C@@H](O)[C@H]1O | steady-state kinetics |  | pH 6.8, 25 °C, together with: microtubules, Taxol, Mg2+ |  | kcat | 0.016 s⁻¹ |
| human TUBB2A | PP6C (human) | co-immunoprecipitation, IP-MS | CYB5R4 knockout cells | concentration not given | baseline: CYB5R4 knockout over parental | log2 fold change | -0.59 |

A few entries again:
| Molecule | tested on | test | test system | setting | scale | measurement | value |
| --- | --- | --- | --- | --- | --- | --- | --- |
| human TUBB2A | PP6C (human) | co-immunoprecipitation, IP-MS | CYB5R4 knockout cells | concentration not given | baseline: CYB5R4 knockout over parental | log2 fold change | -0.59 |
| GGUCUUAAC (ssRNA) | U2AF2 | sequencing of bound RNA | RNA | motif only |  | Kd | 1.4 µM |
